Measured values collected from several papers.
Numbers after ± are the reported error.
MAOA: Amine oxidase [flavin-containing] A (MAOA, Homo sapiens, UniProt P21397)
UniProt P21397, sequence (whole entry, looked up): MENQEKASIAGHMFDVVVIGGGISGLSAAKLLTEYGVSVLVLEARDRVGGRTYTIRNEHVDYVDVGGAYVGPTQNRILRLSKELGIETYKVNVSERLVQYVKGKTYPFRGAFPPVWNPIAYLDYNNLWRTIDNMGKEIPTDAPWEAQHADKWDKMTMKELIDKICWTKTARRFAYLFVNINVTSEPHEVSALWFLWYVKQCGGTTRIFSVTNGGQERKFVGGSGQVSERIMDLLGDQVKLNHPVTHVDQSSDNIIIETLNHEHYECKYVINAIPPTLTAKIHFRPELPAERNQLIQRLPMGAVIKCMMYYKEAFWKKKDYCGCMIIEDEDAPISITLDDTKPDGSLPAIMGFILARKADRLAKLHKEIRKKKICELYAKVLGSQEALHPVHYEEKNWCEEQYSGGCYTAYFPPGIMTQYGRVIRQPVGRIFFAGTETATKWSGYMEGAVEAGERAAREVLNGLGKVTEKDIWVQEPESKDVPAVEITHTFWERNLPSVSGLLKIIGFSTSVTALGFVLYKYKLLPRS
MTOR: Serine/threonine-protein kinase mTOR (MTOR, Homo sapiens, UniProt P42345)
UniProt P08236, sequence (whole entry, looked up): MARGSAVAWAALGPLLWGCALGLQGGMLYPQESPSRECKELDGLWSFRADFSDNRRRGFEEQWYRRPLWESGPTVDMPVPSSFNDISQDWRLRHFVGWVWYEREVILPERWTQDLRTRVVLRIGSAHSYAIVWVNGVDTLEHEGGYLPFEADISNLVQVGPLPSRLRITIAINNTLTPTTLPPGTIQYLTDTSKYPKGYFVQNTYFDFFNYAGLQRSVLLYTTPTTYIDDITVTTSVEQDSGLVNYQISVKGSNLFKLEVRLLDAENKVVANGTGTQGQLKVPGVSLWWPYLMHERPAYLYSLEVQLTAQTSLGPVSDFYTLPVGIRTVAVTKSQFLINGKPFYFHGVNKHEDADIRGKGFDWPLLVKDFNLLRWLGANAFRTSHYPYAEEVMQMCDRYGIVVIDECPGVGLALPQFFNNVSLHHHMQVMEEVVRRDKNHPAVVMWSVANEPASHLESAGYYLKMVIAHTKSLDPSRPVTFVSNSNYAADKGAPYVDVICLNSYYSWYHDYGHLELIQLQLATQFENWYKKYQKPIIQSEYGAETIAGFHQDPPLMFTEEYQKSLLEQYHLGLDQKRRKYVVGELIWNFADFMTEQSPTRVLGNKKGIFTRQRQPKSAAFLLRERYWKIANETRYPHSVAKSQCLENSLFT
UniProt P23443, sequence (whole entry, looked up): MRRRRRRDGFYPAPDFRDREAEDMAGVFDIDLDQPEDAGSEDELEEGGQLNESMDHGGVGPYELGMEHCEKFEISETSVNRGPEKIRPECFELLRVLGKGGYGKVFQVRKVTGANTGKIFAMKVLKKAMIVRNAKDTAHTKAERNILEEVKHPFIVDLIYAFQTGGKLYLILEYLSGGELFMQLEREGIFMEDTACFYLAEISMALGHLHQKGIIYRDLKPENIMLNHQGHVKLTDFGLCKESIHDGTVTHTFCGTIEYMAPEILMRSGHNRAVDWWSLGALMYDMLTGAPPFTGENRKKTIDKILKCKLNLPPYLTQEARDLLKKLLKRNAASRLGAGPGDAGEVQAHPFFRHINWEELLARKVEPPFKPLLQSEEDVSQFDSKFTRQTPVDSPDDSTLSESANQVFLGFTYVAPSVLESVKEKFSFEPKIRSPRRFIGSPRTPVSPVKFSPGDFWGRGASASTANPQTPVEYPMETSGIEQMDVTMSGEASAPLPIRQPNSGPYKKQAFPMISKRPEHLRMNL
UniProt P16234, sequence (whole entry, looked up): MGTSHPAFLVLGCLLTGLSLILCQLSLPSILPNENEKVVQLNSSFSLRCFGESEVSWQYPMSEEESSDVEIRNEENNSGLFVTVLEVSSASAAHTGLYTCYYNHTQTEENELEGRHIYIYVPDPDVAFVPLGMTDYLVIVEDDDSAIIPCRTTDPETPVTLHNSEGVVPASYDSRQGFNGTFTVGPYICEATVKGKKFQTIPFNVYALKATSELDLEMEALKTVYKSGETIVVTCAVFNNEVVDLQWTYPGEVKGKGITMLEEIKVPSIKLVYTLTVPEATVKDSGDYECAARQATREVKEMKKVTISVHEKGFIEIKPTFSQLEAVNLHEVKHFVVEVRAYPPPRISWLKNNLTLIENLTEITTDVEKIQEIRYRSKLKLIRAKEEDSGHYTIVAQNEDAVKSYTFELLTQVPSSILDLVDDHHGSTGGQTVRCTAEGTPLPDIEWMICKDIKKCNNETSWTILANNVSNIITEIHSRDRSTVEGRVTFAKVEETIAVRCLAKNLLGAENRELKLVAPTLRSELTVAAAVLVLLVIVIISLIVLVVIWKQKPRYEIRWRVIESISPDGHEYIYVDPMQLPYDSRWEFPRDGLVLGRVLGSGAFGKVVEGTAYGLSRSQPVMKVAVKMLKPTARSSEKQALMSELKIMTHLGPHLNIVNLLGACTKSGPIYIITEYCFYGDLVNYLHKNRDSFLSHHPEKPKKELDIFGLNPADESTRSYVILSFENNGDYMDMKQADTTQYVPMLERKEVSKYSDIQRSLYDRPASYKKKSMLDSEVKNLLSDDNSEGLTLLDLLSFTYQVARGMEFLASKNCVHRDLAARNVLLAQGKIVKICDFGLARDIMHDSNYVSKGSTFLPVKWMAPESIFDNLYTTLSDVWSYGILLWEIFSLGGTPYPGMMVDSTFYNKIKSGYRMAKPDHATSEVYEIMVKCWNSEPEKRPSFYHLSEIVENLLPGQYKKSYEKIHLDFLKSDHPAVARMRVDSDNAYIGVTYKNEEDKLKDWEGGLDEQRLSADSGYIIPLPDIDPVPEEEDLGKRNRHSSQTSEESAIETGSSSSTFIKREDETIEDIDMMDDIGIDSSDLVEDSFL

Structure (SMILES) | target | test | system | setting | remaining activity
NCCO[C@H]1[C@H](O)[C@@H](O)[C@@H]2O[C@@H]2[C@@H]1C(=O)O | Beta-glucuronidase (GUSB, Homo sapiens, UniProt P08236) | enzyme activity, inhibitor, competitive ABPP | human platelet lysate | 0.1 µM, pH 5.0, pre-incubation 60 min | inactive
O=C1Nc2ccc(Br)cc2/C1=N/N=C/c1ccc(OCc2ccccc2)cc1 | MAOA | enzyme activity, inhibitor |  | 10 µM | 87.8%
CC1(C)CCN(Cc2ccc(C(=O)NC[C@]3(O)CCCN(c4cc(NCc5ccccc5)ncn4)C3)c(O)c2)CC1 | PDGFRA (Homo sapiens, UniProt P16234) | kinase activity, radiometric |  | 10 µM, added: 10 µM ATP | 81%
CC(=O)N[C@@H](Cc1c[nH]c2ccccc12)C(=O)N[C@@H](Cc1c[nH]c2ccccc12)C(=O)N[C@@H](Cc1c[nH]c2ccccc12)C(=O)N[C@@H](Cc1c[nH]c2ccccc12)C(=O)N[C@@H](Cc1c[nH]c2ccccc12)C(=O)N[C@@H](Cc1c[nH]c2ccccc12)C(=O)NCCCC[C@@H]1NC(=O)[C@H](CCCNC(=N)N)NC(=O)[C@H](CCCNC(=N)N)NC(=O)[C@H](CCCNC(=N)N)NC(=O)[C@H](CCCNC(=N)N)NC(=O)[C@H](CCCNC(=N)N)NC(=O)[C@H](CCCNC(=N)N)NC1=O | MTOR | enzyme activity, inhibitor |  | 5 µM | 153%
NC(CNC(CNC(CC(=O)O)C(=O)O)C(=O)O)C(=O)O (stereo not shown) | IMP-7 metallo-beta-lactamase |  |  | 500 µM, 0 min, Zn-depleted buffer | 87.4 ± 5.1%
O=C1Nc2ccc(I)cc2C1=Cc1cc(Br)c(O)c(Br)c1 | beta-lactamase |  |  | up to 25 µM, added: nitrocefin substrate | no effect
O=C1Nc2ccc(Cl)cc2/C1=N/N=C/c1ccc(OCc2cccc(F)c2)cc1 | MAOA | enzyme activity, inhibitor |  | 10 µM | 84.4%
N=C(N)NCCC[C@@H]1NC(=O)[C@H](Cc2c[nH]c3ccccc23)NC(=O)[C@H](CCCNC(=N)N)NC(=O)[C@H](Cc2c[nH]c3ccccc23)NC(=O)[C@H](CCCNC(=N)N)NC(=O)[C@H](Cc2c[nH]c3ccccc23)NC(=O)[C@H](CCCNC(=N)N)NC(=O)[C@H](Cc2c[nH]c3ccccc23)NC(=O)[C@H](CCCNC(=N)N)NC(=O)[C@H](Cc2c[nH]c3ccccc23)NC(=O)[C@H](CCCNC(=N)N)NC(=O)[C@H](Cc2c[nH]c3ccccc23)NC(=O)[C@H](CCCNC(=N)N)NC(=O)[C@H](Cc2c[nH]c3ccccc23)NC(=O)[C@H](CCCNC(=N)N)NC(=O)[C@H](Cc2c[nH]c3ccccc23)NC(=O)[C@H](CCCNC(=N)N)NC(=O)[C@H](Cc2c[nH]c3ccccc23)NC1=O | MTOR | enzyme activity, inhibitor |  | 5 µM | 133%
O=C1Nc2ccc(Cl)cc2/C1=N/N=C/c1ccc(OCc2ccccc2)cc1 | MAOA | enzyme activity, inhibitor |  | 10 µM | 84.7%
O=C=[N][Ru-4]123([n]4c5ccc(O)cc5c5c6c(c7cc(F)c[n+]1c7c54)C(=O)NC6=O)[S+]1CC[S+]2CC[S+]3CC1 (stereo not shown) | RPS6KB1 (Homo sapiens, UniProt P23443) | kinase activity, inhibitor |  | 100 nM, added: 10 µM ATP | 54%

Some of these lines once more:
Structure (SMILES) | target | test | system | setting | remaining activity
O=C1Nc2ccc(Cl)cc2/C1=N/N=C/c1ccc(OCc2ccccc2)cc1 | MAOA | enzyme activity, inhibitor |  | 10 µM | 84.7%
